{"data": "Results gathered from unrelated publications", "note": "Protocols differ between the studies behind these lines. Values joined by “and” are separate records of one study, mostly repeats; a detail may differ. Numbers after ± are the reported error.", "chain of UniProt P08684 (whole entry, looked up)": "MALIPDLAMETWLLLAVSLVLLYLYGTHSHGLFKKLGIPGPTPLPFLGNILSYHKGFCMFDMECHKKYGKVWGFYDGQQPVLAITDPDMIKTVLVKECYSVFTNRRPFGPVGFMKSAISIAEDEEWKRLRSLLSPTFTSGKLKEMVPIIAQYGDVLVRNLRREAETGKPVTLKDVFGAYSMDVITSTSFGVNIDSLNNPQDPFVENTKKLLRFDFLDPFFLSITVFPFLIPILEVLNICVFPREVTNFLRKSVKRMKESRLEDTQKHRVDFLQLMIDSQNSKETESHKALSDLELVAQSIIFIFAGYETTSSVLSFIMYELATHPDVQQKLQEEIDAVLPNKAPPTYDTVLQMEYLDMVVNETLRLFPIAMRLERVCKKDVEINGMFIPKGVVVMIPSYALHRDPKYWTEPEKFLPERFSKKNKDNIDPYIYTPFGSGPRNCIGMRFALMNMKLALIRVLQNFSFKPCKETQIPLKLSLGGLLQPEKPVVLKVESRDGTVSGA"}
{"Structure (SMILES)": "CC[C@H](CO)N(CCN(N=O)[C@H](CC)CO)N=O", "target or system": "Salmonella typhimurium", "assay": "mutagenicity, Ames plate incorporation", "system": "TA98", "setting": "2500 µg/plate, without S9, methanol", "endpoint": "revertant colonies per plate", "result": "29 ± 3"}
{"Structure (SMILES)": "Cc1cc(N)c2c(OCC(C)(C)C(=O)NC(C)C)cccc2n1", "target or system": "Salmonella typhimurium", "assay": "reverse mutation, plate incorporation", "system": "TA98", "setting": "100 µg/plate, with rat liver S9", "endpoint": "mean revertant colonies", "result": "15 colonies/plate"}
{"Structure (SMILES)": "CC(C)(C(=O)N1CCOc2c(C#N)cncc2C1)C(F)F", "assay": "item: Restlessness", "system": "human", "setting": "oral, 10 mg once daily, 14 days, multiple ascending dose", "endpoint": "subjects with adverse event", "result": "0%"}
{"Structure (SMILES)": "CC(C)(c1ccc(O)cc1)c1ccc(O)cc1", "target or system": "HepG2 spheroids", "assay": "flow cytometry, item: phospho-histone H3", "setting": "0.1 µM, 96 h", "how to read": "relative to: solvent control", "endpoint": "mitotic cells increase", "result": "1.73 fold"}
{"Structure (SMILES)": "Cc1c(O)c(C)c2c(c1O)C(=O)C[C@@H](c1ccc(O)cc1)O2", "target or system": "BEAS-2B", "assay": "enzyme activity, inducer, fluorogenic substrate imaging", "setting": "10 µM, 24 h", "how to read": "relative to: control", "endpoint": "CYP1A1 induction", "result": "1.43 fold"}
{"Structure (SMILES)": "C[Si](C)(C)O[Si](C)(C)O[Si](C)(C)C", "target or system": "Oncorhynchus mykiss", "assay": "IVIVE from S9 data", "setting": "per S9 batch", "endpoint": "whole-body biotransformation rate constant", "result": "0.086 day⁻¹ and 0.064 day⁻¹ and 0.077 day⁻¹"}
{"Structure (SMILES)": "Cc1cc(C(=O)NC(C)(C)COc2cccc3c2C(N)=NS(=O)(=O)N3)cc(C)n1", "target or system": "human peripheral blood lymphocytes", "assay": "CBPI, preliminary test", "setting": "60 µg/mL, 4 h, together with: rat liver S9", "how to read": "relative to: vehicle control", "endpoint": "cytotoxicity", "result": "9%"}
{"Structure (SMILES)": "CC1(C)CC[C@]2(C(=O)O)CC[C@]3(C)C(=CC[C@@H]4[C@@]5(C)C[C@@H](O)[C@H](O)C(C)(C)[C@@H]5CC[C@]43C)[C@@H]2C1", "target or system": "BEAS-2B", "assay": "enzyme activity, inducer, fluorogenic substrate imaging", "setting": "10 µM, 24 h", "how to read": "relative to: control", "endpoint": "CYP1A1 induction", "result": "1.08 fold"}
{"Structure (SMILES)": "Cc1cc(Nc2ccc(S(F)(F)(F)(F)F)cc2)n2nc(C(C)(F)F)nc2n1", "target or system": "Plasmodium falciparum", "assay": "12-lead Holter ECG", "system": "human malaria patients", "setting": "oral, 400 mg, QTc above 500 ms", "endpoint": "patients with QTcF above threshold", "result": "0%"}
{"Structure (SMILES)": "CC(=O)Nc1cccc(-n2c(=O)n(C3CC3)c(=O)c3c(Nc4ccc(I)cc4F)n(C)c(=O)c(C)c32)c1", "target or system": "NCI-H2087 (BRAF L597V)", "setting": "concentration not given, 72 h, unit not given", "how to read": "relative to: DMSO", "endpoint": "viability", "result": "0.929 and 0.873 and 0.431 and 0.428 and 0.562"}
{"Structure (SMILES)": "C=C(NC(=O)c1nccc(OC)c1O)C(=O)O[C@@H](C)[C@H](OC(=O)C(C)C)[C@@H](Cc1ccccc1)C(=O)O", "target or system": "Pseudokirchneriella subcapitata", "assay": "growth", "setting": "concentration not given, 72 h, static test", "endpoint": "NOEC", "result": "10000 µg/L"}
{"Structure (SMILES)": "CC[C@H]1[C@@H](O)[C@@H]2[C@H](CC[C@]3(C)[C@@H]([C@H](C)CCNC(=O)NS(=O)(=O)c4ccc(C(C)(C)C)cc4)CC[C@@H]23)[C@@]2(C)CC[C@@H](O)C[C@@H]12", "target or system": "Cytochrome P450 3A4 (CYP3A4, Homo sapiens, UniProt P08684)", "system": "human, plasma", "setting": "dose not given, together with: fluconazole", "endpoint": "half-life geometric mean", "result": "22.3 h"}
{"Structure (SMILES)": "C[Si]1(C)O[Si](C)(C)O[Si](C)(C)O[Si](C)(C)O[Si](C)(C)O1", "target or system": "Oncorhynchus mykiss", "assay": "extrapolated from liver S9", "setting": "concentration not given, lipid-normalized, total", "endpoint": "bioconcentration factor", "result": "33000 L/kg lipid"}
{"Structure (SMILES)": "CN1CCN(c2cnc3c(cc(C(=O)NCc4ccc(Cl)cc4)c(=O)n3CC(=O)N3CC(C)(F)C3)n2)C1=O", "target or system": "herpes simplex virus 1", "assay": "cytopathic effect", "how to read": "relative to: CC50 over EC50", "endpoint": "selectivity index", "result": "> 106"}
{"Structure (SMILES)": "C[C@H]1CN(C2COC2)CCN1c1ccc(Nc2cc(-c3ccnc(N4CCn5c(cc6c5CC(C)(C)C6)C4=O)c3CO)cn(C)c2=O)nc1", "target or system": "human CYP3A4/5", "system": "human liver microsomes", "setting": "1 µM, 60 min, pH 7.4, together with: troleandomycin 20 µM, NADPH", "how to read": "relative to: 0 min", "endpoint": "remaining compound", "result": "96.3 ± 14.4%"}
{"Structure (SMILES)": "N#Cc1ccc2c(c1)[C@H]1CCCN(C(=O)c3ccc4[nH]cnc4c3)[C@H]1C2", "system": "human", "setting": "80 mg, day 7", "how to read": "relative to: baseline", "endpoint": "ACTH level change", "result": "1.9 pmol/L"}
{"note": "A few entries again:"}
{"Structure (SMILES)": "Cc1c(O)c(C)c2c(c1O)C(=O)C[C@@H](c1ccc(O)cc1)O2", "target or system": "BEAS-2B", "assay": "enzyme activity, inducer, fluorogenic substrate imaging", "setting": "10 µM, 24 h", "how to read": "relative to: control", "endpoint": "CYP1A1 induction", "result": "1.43 fold"}
